Measurements from different studies.
Every numbered part comes from another study and shows a few of its results, in no order. Changes are numbered by the printed parent chain.

Study 1 — effect on: binding; method: phage display NGS; form: peptide; relative to: input library
Target: UDP-N-acetylglucosamine--peptide N-acetylglucosaminyltransferase 110 kDa subunit (OGT, Homo sapiens, UniProt O15294)
Sequence of UniProt O15294 (whole entry, looked up): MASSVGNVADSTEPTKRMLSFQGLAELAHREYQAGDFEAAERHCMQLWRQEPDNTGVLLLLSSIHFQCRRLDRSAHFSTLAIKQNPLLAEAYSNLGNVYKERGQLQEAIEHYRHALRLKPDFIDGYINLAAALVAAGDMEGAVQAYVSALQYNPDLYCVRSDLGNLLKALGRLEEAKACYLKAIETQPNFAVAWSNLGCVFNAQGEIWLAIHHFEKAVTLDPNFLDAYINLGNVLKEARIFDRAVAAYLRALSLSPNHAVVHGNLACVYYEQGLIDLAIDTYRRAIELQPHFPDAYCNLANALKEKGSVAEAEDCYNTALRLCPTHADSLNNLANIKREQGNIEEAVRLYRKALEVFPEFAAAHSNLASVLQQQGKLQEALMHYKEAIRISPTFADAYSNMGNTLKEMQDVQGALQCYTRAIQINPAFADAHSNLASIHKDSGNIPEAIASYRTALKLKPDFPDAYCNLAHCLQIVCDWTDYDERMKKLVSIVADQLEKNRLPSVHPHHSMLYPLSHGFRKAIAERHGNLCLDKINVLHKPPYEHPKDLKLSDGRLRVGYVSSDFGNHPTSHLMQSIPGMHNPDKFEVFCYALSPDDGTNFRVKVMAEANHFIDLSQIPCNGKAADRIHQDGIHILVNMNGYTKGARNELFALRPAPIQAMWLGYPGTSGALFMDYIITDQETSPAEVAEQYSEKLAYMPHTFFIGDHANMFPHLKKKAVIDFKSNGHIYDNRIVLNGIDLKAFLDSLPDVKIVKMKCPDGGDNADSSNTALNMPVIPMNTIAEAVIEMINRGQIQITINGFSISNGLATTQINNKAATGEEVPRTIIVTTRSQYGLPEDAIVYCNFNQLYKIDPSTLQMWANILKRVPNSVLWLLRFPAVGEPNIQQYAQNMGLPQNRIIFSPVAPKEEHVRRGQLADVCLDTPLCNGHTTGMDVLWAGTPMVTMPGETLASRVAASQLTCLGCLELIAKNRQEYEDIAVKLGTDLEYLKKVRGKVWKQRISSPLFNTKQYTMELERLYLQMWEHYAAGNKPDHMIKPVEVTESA
Molecule | minimum log2 enrichment ratio
WTPHPAHDNKPHYR | 1.43
TNFMPLYQIPTTQYF | 4.21
HTFREHYINHWTHSI | 3.33
HIQHYHHDIQYTRDL | 2.71
WTDHGGNIIHTHHH | 5.78
WAGWRGTDALHSHWD | 1.8
DSMLFTPLYQITVPH | 5.41
VTNYHPSYHHLSHYA | 2.02

Study 2 — target: inorganic phosphate, free oxyanion; method: microfluidic competitive inhibition; medium: in vitro, cell-free expressed; concentration: not given; direction: lower = stronger binding
Notes: derived from inhibition constants, unchanged parent 615000 nM
Starting sequence: PafA, mature enzyme, eGFP fusion (Elizabethkingia meningoseptica, UniProt Q9KJX5); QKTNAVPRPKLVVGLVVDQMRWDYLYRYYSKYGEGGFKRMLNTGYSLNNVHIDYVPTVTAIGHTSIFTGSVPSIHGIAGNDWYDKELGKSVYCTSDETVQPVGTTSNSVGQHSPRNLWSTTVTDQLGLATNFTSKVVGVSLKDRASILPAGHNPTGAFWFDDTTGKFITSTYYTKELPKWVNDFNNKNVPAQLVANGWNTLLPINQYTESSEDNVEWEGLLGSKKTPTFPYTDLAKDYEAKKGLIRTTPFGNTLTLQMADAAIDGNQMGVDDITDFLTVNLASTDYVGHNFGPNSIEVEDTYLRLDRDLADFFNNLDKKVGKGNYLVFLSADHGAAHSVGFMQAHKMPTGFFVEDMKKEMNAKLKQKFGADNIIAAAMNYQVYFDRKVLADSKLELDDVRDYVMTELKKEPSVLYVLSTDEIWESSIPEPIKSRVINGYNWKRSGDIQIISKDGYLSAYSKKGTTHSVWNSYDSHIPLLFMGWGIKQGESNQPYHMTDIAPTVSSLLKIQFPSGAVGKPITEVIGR
Variant | phosphate dissociation constant [µM]
E297V | 153
N42G | 498
L177V | 605
L364V | 647
L303G | 518
E395G | 588
V137G | 568
L220V | 689

Study 3 — target: CCNB3, cyclin fold, Cln2 fusion (human); method: yeast growth competition, sequencing; medium: yeast; notes: strong parent motif; relative to: not given; direction: higher = stronger binding
Starting sequence: viral docking peptide; KGVKRKLFAEDSS; partner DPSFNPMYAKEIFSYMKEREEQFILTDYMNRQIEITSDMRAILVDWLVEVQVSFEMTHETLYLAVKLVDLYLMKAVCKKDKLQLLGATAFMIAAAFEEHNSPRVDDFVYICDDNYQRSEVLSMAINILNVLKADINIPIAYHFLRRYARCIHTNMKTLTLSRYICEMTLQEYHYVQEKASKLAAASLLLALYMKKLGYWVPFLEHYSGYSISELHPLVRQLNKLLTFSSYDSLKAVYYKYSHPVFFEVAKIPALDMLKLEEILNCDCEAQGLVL
Variant | normalised enrichment score
L7F | 0.21
V3W | 0.554
A9P | 2.74
F8G | -0.00601
G2R | 2.64
K4I | 1.83
S12Q | 2.59
R5H | 0.129

Mixed results
Structure (SMILES) | target | method | concentration | measurement | value
O=C1NC(=O)N(c2ccc(F)cc2)C(=O)C1=CNc1ccc(F)cc1 | His6 tag | AlphaScreen counter screen | concentration not given | inhibition | 3.4%

For quick reference, copied from above (study 2):
Variant | phosphate dissociation constant [µM]
E297V | 153
L303G | 518
